Measurements gathered from unrelated publications.
Numbered parts are unrelated; each lists some results of a single study. Changes are numbered by the printed parent chain.

Block 1 — method: DHFR PCA, deep sequencing; matrix: yeast; added: (+)-ABA 200 µM; reference: wild-type fitted maximum; reading: higher = stronger binding
Target: ABI1, truncated, D143A, DHFR fusion (Arabidopsis thaliana)
Notes: methotrexate growth selection, single substitutions
Starting sequence: PYL1, truncated, DHFR fusion (Arabidopsis thaliana); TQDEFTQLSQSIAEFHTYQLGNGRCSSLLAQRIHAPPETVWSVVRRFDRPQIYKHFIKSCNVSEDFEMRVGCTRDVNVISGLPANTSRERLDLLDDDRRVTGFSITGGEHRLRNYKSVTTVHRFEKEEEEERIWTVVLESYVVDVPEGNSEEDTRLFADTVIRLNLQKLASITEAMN
Variant | relative binding score [%]
D96H | 74
R163M | 76.7
V136F | 90.5
I57Y | 42.2
S27R | 81.8
Q167V | 88.8
R98F | 83.3
T173E | 8.36
Y141F | 82
L164F | 95.4

Block 2 — method: RNA Bind-n-Seq; molecule type: RNA; matrix: in vitro; concentration: 365 nM; reference: no-protein control; reading: higher = stronger binding
Target: RNA binding protein fox-1 homolog 2, RRM domain, GST-SBP tag (RBFOX2, Homo sapiens, UniProt O43251-10, residues 100-194)
Notes: natural RNA segment, single round, ends assumed
Constant ends, left off below: GGGAGUUCUACAGUCCGACGAUC … UGGAAUUCUCGGGUGCCAA
Construct (chain): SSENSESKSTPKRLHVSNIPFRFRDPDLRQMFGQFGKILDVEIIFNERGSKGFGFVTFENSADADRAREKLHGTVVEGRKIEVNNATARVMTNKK
Sequence | RBNS enrichment (R)
AGAGUAGAUCAUUUUAAUAAGAAUUAUUUAAUCCCAUACAAGUUUUCUUUGCAGGAGCUAGCCCAAAGGCAUCAAAUUUAAUAUGAUAAAAUGAAUUGCUAUACCUUAGA | 0.832
ACCCAGCUGGAUACUCCCAAAAUGUCACAUCCCAUCCAACCUCAGAUCUGAUGCAGUCAUCUGUGUCCCCCAACCAAAGCCCAUUUGGGUCUGAGGGUUCCAGCGUAAAU | 0.567
UGACCGAAGGCUGUGUGUGAAAGGGGAGAAAGACGAGACUUCCAGGCAGGGCUAUUCUUUUUAUUUCUGCGAGGGACAAGAGUCUGGCUUUUAAGCUGCAGCCCCGCUGU | 0.822
CCAUCGGAUUGAACAUACACUGUAUAUUUUGCAAUAGUUACCUCAAGGCCUACUGACCAAAUUGUUGUGUCGAGAUAUUUAACUUUUGCCAAAUAAAAUAUAUUGAUUCU | 0.304
UUUCCUUCUGACUCUGUUUGGAUUGAGGGGAAGUCCGUCUUGCUGAUGAUGGUGACCGUGAAAGUGAAAUGGAAGGGAUGAGUGAAGAGGUUUUGGUUUGUUUGUUUGUU | 3.63
GUCCACUUUGGUCUGUAAGUAGGAUGCUUACGAGAAAUCAGUGAAGGUAAGCAGGGCUGCCACUGUGGCCACGUAACCCUUCAGGAACCAGUGCUGAAGAAUAAUGAGUG | 0.425
AGGGCCAAGGCAGGAAGGGCCAGGGCCUCCUCUGUCCUUACCAACUCUGGGAAGUCAGCUCUGCCGGCCCGAGAGGGGCGGGCACUUUUUCAGCUUGCUAUAACCCCUUC | 0.412
UCCUGUUUUGGUUUAACAGUUUCUGAGAUACGUGUGUUAUAGGUUCAUUUACUACGAUCUGUCCACACUCGAAAAGUAGGCUACAUUAAAUCAUGCUAGCAGCCUUAAGA | 0.225
AGCAAGGUAGCUUGGAAUACCUUUUUUAAAAACAACUGGAUAUAAAUAUGUCUGACAGGAUUGGAAUCAGACUAUGUGAUUUGCUUGUAAAGAUUAGUUUCAGUGAGUCC | 1.09
UUGUUUCUUUGAUUUCUUUGCCAAUGGCAAGAAGAUGAGAUGCCCUCAGCACUGAGGAUUCUUGCCCCCUUGUGGUGCCCGCUGCCCCCAACCUUCAGGCUGCCAGAUGC | 0.394
AGGGCUCUGUACAGUUUUGCCAUUUCACUGUUCUGCUUUAAGCUUAGCUUAUUAGAACUCUUGGUGGAGGGUGCGUACACACAUUCCAGAAAAGGCUUCACUCGCUGGGA | 0.273
CUUUAGUUGGGUUUAUUUCCAGGUCACAGAAUUGCUGUUAACACUAGAAAACACACUUCCUGCACCAACACCAAUACCCUUUCAAAAGAGUUGUCUGCAACAUUUUUGUU | 0.205

Block 3 — method: universal PBM; molecule type: double-stranded DNA, one strand shown; matrix: in vitro; concentration: not given; reading: higher = stronger binding
Target: Sal-like protein 4, full length isoform B (SALL4, Homo sapiens, UniProt Q9UJQ4-2, residues 1-616)
Notes: 8-mer, flanks averaged, mean of replicates
Sequence | E-score
AGGCCCCA | -0.293
CGAAGCAA | 0.115
CACGCACC | -0.229
ATGGCGCG | -0.00948
GCATCTCA | 0.0646
AGGCAGTA | -0.0203
ATTTGTAA | 0.289
TACTCCAA | -0.00235
AGTTACTC | 0.0954
CCATAAGA | 0.152
ACCGGAAC | -0.321
TGGTTACA | 0.0606
AACAACGA | 0.157
AACGATGT | 0.133
AGATCGAT | -0.00663
GAGCCTGA | -0.222
AACATACG | 0.176
AATTTAAC | 0.209

Block 4 — method: protein binding microarray; molecule type: double-stranded DNA, one strand shown; matrix: in vitro; concentration: not given; reference: not given; reading: higher = stronger binding
Target: Histone acetyltransferase KAT6A, both winged helices, GST fusion (KAT6A, Homo sapiens, UniProt Q92794, residues 1-181)
Notes: 8-mer, flanks averaged, mean of 2 arrays, mostly near background
Target sequence (chain): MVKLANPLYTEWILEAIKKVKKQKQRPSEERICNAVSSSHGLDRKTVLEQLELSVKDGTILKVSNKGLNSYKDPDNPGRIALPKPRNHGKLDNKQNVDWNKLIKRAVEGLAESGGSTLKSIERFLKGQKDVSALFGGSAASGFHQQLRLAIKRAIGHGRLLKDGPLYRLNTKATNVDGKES
Sequence | E-score
GTCGCCCA | -0.0168
AACTTAGG | -0.158
ACTGTGGA | -0.107
CCTGAGCG | 0.163
AGAACCAA | -0.186
AACCCTGG | -0.144
TCATCCGA | 0.0688
AGGGTCGC | 0.0341
ATTCGATG | -0.084
AGCCGAAC | 0.0667
GTCAATCA | -0.0695
AATACATC | 0.0743
CCCTCCGG | 0.0722
ACTCCAAT | -0.104
CTGTCCCC | -0.124
AGCTGTGA | -0.0808
GGCCCGAA | 0.164
ACTCTAAA | -0.167
AAGTGTTC | -0.0415
AAGGTCTC | 0.0398
CTCGTTTC | -0.143
CGCAGAAG | 0.128
CCTACGTA | 0.0192
CAGGGTGC | -0.083
CGTGCTTA | 0.041

Block 5 — method: RNA Bind-n-Seq; molecule type: RNA; matrix: in vitro; concentration: 100 nM; reference: input RNA pool; reading: higher = stronger binding
Target: RING finger protein unkempt homolog, zinc fingers 1-6, SBP tag (UNK, Homo sapiens, UniProt Q9C0B0, residues 30-357)
UniProt Q9C0B0, sequence (30-357, looked up): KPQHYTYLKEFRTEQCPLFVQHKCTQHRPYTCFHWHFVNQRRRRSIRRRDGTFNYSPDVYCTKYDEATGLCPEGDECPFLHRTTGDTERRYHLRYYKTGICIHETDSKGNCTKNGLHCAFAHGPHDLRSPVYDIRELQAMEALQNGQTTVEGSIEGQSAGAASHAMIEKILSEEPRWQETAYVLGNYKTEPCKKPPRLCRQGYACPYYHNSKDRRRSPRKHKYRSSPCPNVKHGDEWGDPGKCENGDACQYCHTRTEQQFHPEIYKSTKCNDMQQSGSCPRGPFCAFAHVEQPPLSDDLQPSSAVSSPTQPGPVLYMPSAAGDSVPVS
Notes: RNA with constant flanks, vertebrate orthologous sites, ends assumed
Constant ends, left off below: GGGAGUUCUACAGUCCGACGAUC … CAACAGAGGAUUGAGCAUCA
Sequence | bound/input enrichment
GGAGAGCUGAUAGAGUAGGGUCCUGUUCUCCUUAGAACGUUCUUUCUCUGUUUUGUCUUCCUCAGGGUGGGGUAGGGGUUGUGGUGCACCCUAGCCCUGAGGCGUGAGCAUUUGUGGUUC | 0.721 ratio
UUCAGGCACAACUGACUGGUUCACAGCAUCCCUUACAUAGCUACCUAUCAAGUGCAAGUAUUGGUAAUUUUCAGGAACCAUCCAGGCAGUCGUCUUUAUCCUGUAGUUCAGUUCGAGAUU | 0.541 ratio
GACCUCCUGAACCUCUAGCUUUCAAGCUGUGGCUGUUUUAGCUACCGGUUUUAUUUUCUUUAUAGUUUUUCCCUGUUUCCCGCCUUCUCUUCCCUGUUCCCAAGGUUUGACUCAUGGAUU | 3.92 ratio
AUGCACAUGCGCUGUCACCAAAAACAAACCACACCUCUCAAACUUCAUUCAGAGCUGUUCUAGUGUUUCCCAUUCCCCACCCUUCCCACUGCCUUCGAUGAUCAAGUAUCCUCAGUUCUC | 1.4 ratio
UCCUCAACUUGUUCUAGCUUGUGAUCCUUCAAAGUUGGGUCAUACAUUAGUGCUAGAUACUAGAAAUUUUCACUUUUCCACUGAUCAGAGAGACAGACAUUAAAAACAAAAAUAGAAGAA | 1.87 ratio
CUGUUUUGUGAAACAUGUCUACCCAGAAAAGUAACAUUCUAUAAAUACUAUUAAACAACUUAGCUAUGUUAUUUUUAAGUAUUAAAUUAUAUGUCAGUUAAAGUGAAUUUCAGAGUAAAA | 0.577 ratio
AUUCAAACCUGUGGUACCUUGGCCCCAUGUGGAAGGGGUAGAAGUGGACUUGGAGUCUAUUAGAAGAAAAAACAAAGCCAAAAACGAGCAGGAGCAUCAAGUUGGGGGUAUCAACCAACA | 0.44 ratio
AUGGUGGAUGUACAUUAUCAUUUCAUAUAGAAAAUAUAAAAAUUCAUUUUGUUUUUAAGCUAGGUGUUAAACUGGAAUAGCUAUUAUACCCCUGAGAAUGGGGCAGUUGUGCCCUUCCCU | 2.98 ratio
GGAAAGUUACAGACCAGACUCUGAAAGCAGGAGUACAGGAUCCUGGUUAUCGUCAUCUUUGAGGAACAGAUGUACACCGCUCUUUUCCAGAAGAAGAAGAGAAGGGAGAGAUGAAUCUGC | 0.421 ratio
UAAUGUACUCUUAUUUAUUGAGGAUAGUUUUGUGCUGAGGAUUGUGCUAGACUUAAACUAAUGCUGAUGUUCUUCUUCGUUGUAUUGUUUCAUUCCUGGAAAUAAAAUUUUGUAUACAAA | 0.712 ratio
ACGCAUUUUGCAACUUGGAUGUGGUCUGCACAGGAAGCUGCUGGCCCCUCCACAACAACACAGAAAAUGUUUGUCUUUUUUUUUUUAAAGAUGUUAAAACUGAAUUGAAUUUACGAAAAA | 0.23 ratio
